Experimental data collected from several papers.
Numbered parts are unrelated; each lists some results of a single study. Substitutions count along the parent as printed.

Set 1
Target: Prothrombin, mature alpha-thrombin (F2, Homo sapiens, UniProt P00734)
Method: aptamer microarray, sandwich
Form: DNA with 2'F-ANA
Medium: in vitro
Concentration: 200 nM
Notes: whole 15-mer aptamer, many near background
With: Cy3 exosite-II aptamer, 400 nM
Reading: higher = stronger binding
Strand: GGTTGGTGTGGTTGG
Modification | mean fluorescence intensity [a.u.]
2'F-ANA at 2 4 10 12 13 15 | 115
2'F-ANA at 3 8 9 10 12 13 14 15 | 307
2'F-ANA at 1 3 4 6 8 11 13 | 149
2'F-ANA at 1 3 4 5 6 7 10 15 | 56.9
2'F-ANA at 2 3 4 9 13 15 | 446
2'F-ANA at 1 3 4 5 9 13 | 48
2'F-ANA at 1 6 7 9 10 13 | 62.1
2'F-ANA at 1 2 4 7 8 9 10 12 15 | 62.1
2'F-ANA at 1 2 3 5 6 7 8 9 10 14 15 | 69.5
2'F-ANA at 1 2 3 4 6 8 9 10 11 13 15 | 102
2'F-ANA at 1 3 5 6 10 11 13 14 | 44.2
2'F-ANA at 2 4 5 10 11 12 14 15 | 52.4
2'F-ANA at 2 3 4 6 8 10 | 190
2'F-ANA at 2 4 5 8 9 10 13 14 15 | 48.5
2'F-ANA at 1 2 3 5 7 8 11 13 14 | 48.1
2'F-ANA at 5 9 11 14 | 43.9
2'F-ANA at 1 2 5 7 8 12 14 | 47
2'F-ANA at 2 4 5 6 9 10 14 15 | 50.6
2'F-ANA at 1 6 7 10 11 12 13 | 90.3
2'F-ANA at 1 2 6 10 11 13 14 | 105
2'F-ANA at 4 5 8 10 12 13 | 47.3

Set 2
Target: Transcriptional repressor CTCF (CTCF, Homo sapiens, UniProt P49711, residues 1-727, full length assumed)
Sequence of UniProt P49711 (whole entry, looked up): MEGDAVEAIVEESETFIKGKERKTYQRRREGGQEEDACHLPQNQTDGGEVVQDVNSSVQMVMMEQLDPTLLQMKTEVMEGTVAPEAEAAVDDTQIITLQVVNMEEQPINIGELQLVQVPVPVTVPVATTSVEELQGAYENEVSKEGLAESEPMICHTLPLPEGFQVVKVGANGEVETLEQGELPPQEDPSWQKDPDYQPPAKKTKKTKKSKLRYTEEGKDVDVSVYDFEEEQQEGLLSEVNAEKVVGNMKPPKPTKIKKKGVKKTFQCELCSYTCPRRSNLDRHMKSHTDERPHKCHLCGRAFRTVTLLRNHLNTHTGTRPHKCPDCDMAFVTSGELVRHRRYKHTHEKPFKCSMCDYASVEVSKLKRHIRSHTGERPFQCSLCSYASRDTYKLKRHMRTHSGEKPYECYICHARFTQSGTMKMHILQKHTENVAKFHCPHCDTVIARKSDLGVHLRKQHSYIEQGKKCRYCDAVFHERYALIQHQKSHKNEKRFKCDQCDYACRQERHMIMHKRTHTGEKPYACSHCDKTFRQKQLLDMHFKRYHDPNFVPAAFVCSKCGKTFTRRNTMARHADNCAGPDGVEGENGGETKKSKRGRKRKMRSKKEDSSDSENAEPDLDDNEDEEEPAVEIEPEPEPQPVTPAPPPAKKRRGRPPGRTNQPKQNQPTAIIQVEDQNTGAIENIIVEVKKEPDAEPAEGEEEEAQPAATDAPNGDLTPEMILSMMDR
Method: protein-binding microarray
Form: double-stranded DNA, one strand shown
Medium: in vitro
Concentration: not given
Notes: k-mer, scored over probes, only values ≥0.25
Reading: higher = stronger binding
Strand | E-score
GTATTAAA | 0.309
CGCATAAA | 0.335
AACGGCCT | 0.319
TAGCGAAA | 0.251
ACATTATA | 0.336
TAGTTATA | 0.262
AAACATTT | 0.274
ATAATGAT | 0.308
AGGGGAGG | 0.316
ATGTACAT | 0.261
AACGTTAT | 0.269
AATATACC | 0.281
ATAACATC | 0.274
TTATATAA | 0.396
AATTATCA | 0.338
ATATCTTA | 0.285
TAACTATA | 0.264

Set 3
Target: RNA binding protein fox-1 homolog 2, RRM domain, GST-SBP tag (RBFOX2, Homo sapiens, UniProt O43251-10, residues 100-194)
Method: RNA Bind-n-Seq
Form: RNA
Medium: in vitro
Concentration: 365 nM
Notes: natural RNA segment, single round, ends assumed
Relative to: no-protein control
Reading: higher = stronger binding
Residues (chain): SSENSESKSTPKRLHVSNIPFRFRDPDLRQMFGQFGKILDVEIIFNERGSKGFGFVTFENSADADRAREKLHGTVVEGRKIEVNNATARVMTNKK
Strand | RBNS enrichment (R)
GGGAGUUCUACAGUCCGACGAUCUCUAGGAAUGCAGUUAGUAAAAGCCUGGCGUCUACUGCAGAGUAUGUAUACUUGGUGGUAGAGGGCUUGCUUGAAGACCCAAGUUCCAUCCCUAGCACCACAGAGCAGGGUGGAAUUCUCGGGUGCCAA | 0.608
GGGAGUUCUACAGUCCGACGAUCCUCCCGUCGUACCGCUUUAACCCGGACAGCCAUCAGUCGGAGCAGACGCGGUGUGUGGUCUGCUUCAGUGACUUCGAGGCGCGGCAGCUGCUCCGAGUCCUCCCCUGCAAUGGAAUUCUCGGGUGCCAA | 0.353
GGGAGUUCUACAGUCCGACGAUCCUGGCCAGCUAGAGACCGUUCUAAAGUCCACUGGAAGUCAAGAAUCUCGUUUACUGAUAAUAGUAAAGUUGAUUCAUGACCCCUGUCCUUUUUUUUCUACUGAUCUACCCUGGAAUUCUCGGGUGCCAA | 0.271
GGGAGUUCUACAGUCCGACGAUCAGGAAAUGCAGUUUCAUGUAAUCCCUGUGAAGAGUGCCUAUGCCCACAGCCCAGUGGGUCCUUGUUCAGUUCUUGUCCAGGCCUUUGGGUGAGGGACACUGGUAGGGAUCUGGAAUUCUCGGGUGCCAA | 0.192
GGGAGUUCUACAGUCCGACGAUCAGGAGAGGACAAGUGGGGACAUUUCCUCGGCAUGGCCUCCAAGGCCUGCAUGGCUACACACCUGGCUCAGUGCCUCCUCCAGAUCCCCUCCUGAGGCUGCCCCAAGGCCUUGGAAUUCUCGGGUGCCAA | 1.04
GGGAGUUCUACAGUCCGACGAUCCUUAAACAAAAAUUAAAAUCCUCAAUCCAGCUAUGUUAUAUUGAAAAAAUAGAGCCUGAGGGAUCUUUACUAGUUAUAAAGAUACAGAACUCUUUCAAAACCUUUUGAAAUGGAAUUCUCGGGUGCCAA | 0.4
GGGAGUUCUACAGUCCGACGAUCAUCAAGGCGGUAAAUCAAGUGGAAAAAGCGUCGGGUUCAAGGGGAGAACUCUGAUUGUGGGUAAUCCAUAAGCUUCCUCUACAGGCUCCCCGCUUGGUUCUCACUUCUGCUGGAAUUCUCGGGUGCCAA | 0.255
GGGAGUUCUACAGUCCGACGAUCUCAUUCUUUUUUUCUGAAAGAGGUAAUAAUUCUAGUUUUGAUAGACUCUGAGGAUUAUGUGAACAGGACAUUUUUCAUUUGUGAAUUUAAUGCUAUACUGUCAAGGUACUUGGAAUUCUCGGGUGCCAA | 0.372
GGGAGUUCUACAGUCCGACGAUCACCAGGCCCCAGAGCAGACUCAUCCGGGGUGGCAGGUCCCUAAAGCAAGGAAGGCCUCACACUGUCCAGCAUACUCCAGCCUGAAUUGCCUACUGGGUUCUCAGGGGGCAUGGAAUUCUCGGGUGCCAA | 0.496
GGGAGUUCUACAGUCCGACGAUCUAUCACACAAAGGCUGAUUUCUAAAAUAUAUAUAUAUUAAAACAAUAAAGUAUUUAUUUUGCCUAAAGUGUUUUAGUGGUUUCUUAAACUGCAACAUGAAGAUUUUGAAUUGGAAUUCUCGGGUGCCAA | 1.24
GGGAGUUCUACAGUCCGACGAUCCUGGGAUUACAGGCUUGAGCCACCACGCCCAGCCUAAGAUUUUAUGAUUAAAAAAAAUUCAAGCUCAAUACCCACAUAAAUUAUAACGUUUCUCAGGAAGUAGUCCCUUAUGGAAUUCUCGGGUGCCAA | 0.403
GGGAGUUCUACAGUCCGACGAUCGCCUCCAUGUCUGCUUGCAUCUAGCUUGCACAAAGAUAGAUCUUUGUGGUGAGAUCAUCUGUGUGGAGUUUUAAGAAGCUCUGGAAGAAGGUACUGCCCGCGUUUAAAGGUGGAAUUCUCGGGUGCCAA | 1.35

Set 4
Target: Histone acetyltransferase KAT6A, winged helix 1, GST fusion (KAT6A, Homo sapiens, UniProt Q92794, residues 1-85)
Method: protein binding microarray
Form: double-stranded DNA, one strand shown
Medium: in vitro
Concentration: not given
Notes: 8-mer, flanks averaged, mean of 2 arrays, mostly near background
Relative to: not given
Reading: higher = stronger binding
Target sequence (chain): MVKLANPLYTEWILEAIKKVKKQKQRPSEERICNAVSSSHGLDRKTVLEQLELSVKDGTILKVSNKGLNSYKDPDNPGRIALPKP
Strand | E-score
ACCGATAA | -0.0262
CTAGCTAC | -0.0839
ATCGCTTG | 0.096
CCAATTCG | -0.258
AGAGCCCT | -0.111
AGACAAAC | -0.224
GGGACACA | -0.211
GAGCAGCA | -0.0644
CTAGTATA | -0.0221
CCCACGTC | -0.1
AATTTAAC | -0.148
ATAAACTA | -0.0477
AACCAGGA | 0.00688
AAAACCAA | -0.0774
CTACGTTA | 0.00813
AAAATATT | -0.121

Set 5
Target: ABI1, truncated, D143A, DHFR fusion (Arabidopsis thaliana)
Method: DHFR PCA, deep sequencing
Medium: yeast
Notes: methotrexate growth selection, single substitutions
With: (+)-ABA 710 µM
Relative to: wild-type fitted maximum
Reading: higher = stronger binding
Starting sequence: PYL1, truncated, DHFR fusion (Arabidopsis thaliana); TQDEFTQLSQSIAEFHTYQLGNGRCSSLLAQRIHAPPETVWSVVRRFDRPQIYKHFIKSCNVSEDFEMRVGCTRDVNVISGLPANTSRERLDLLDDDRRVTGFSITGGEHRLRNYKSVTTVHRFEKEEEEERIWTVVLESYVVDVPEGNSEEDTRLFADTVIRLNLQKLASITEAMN
Variant | relative binding score [%]
Q10M | 94.6
S80W | 67.9
S117P | 9.14
L112F | 89.2
V142W | 83.8
T154N | 5.05
A84G | 98.9
L28E | 14.1
V145C | 93.8
L91D | 17.4
L29Y | 69.6
E147R | 94.2

Set 6
Target: RING finger protein unkempt homolog, zinc fingers 1-6, GST-SBP tag (UNK, Homo sapiens, UniProt Q9C0B0, residues 30-357)
Sequence of UniProt Q9C0B0 (30-357, looked up): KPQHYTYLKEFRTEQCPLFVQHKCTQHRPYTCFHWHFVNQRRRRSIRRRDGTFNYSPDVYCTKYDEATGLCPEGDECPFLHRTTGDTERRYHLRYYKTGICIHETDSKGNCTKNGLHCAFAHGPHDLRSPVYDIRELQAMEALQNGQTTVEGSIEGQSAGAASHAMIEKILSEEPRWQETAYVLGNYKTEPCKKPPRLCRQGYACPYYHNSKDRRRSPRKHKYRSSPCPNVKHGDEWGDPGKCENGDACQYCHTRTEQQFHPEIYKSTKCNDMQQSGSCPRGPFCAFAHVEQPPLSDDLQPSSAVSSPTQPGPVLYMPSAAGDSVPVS
Method: RNA Bind-n-Seq
Form: RNA
Medium: in vitro
Concentration: not given
Notes: RNA with constant flanks, human-mouse chimeric sites, ends assumed
Relative to: input RNA pool
Reading: higher = stronger binding
Strand | bound/input enrichment [ratio]
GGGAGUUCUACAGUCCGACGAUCGGGACUGAUUCAUCCCAAGGACAGGCCACCCCAUUUGGUGUUUGGAAUGAUGACAGUAUGGAAGGGCCUAGUCAAAAUGUUGAAGCUGAGUCAAUUCAGGAUGCCAUGCAUAUGGCAGAGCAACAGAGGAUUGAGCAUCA | 0.152
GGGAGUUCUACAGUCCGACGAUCAAAGAGUGGAUAGAGUGUGCACACGGGAUCGGUGGGACCCGGGCGAAAAAGGAGUGCAAGAUAGAAUAUGAUGAUUUCGAAGAGUGCUUGCUUCGGUACAAAACGAUGAGGCGAAUGCAUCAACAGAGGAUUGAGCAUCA | 1.42
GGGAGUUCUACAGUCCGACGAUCUGGCGCCUGCGCUCCCCACUCGUGUUUGUAUUUUUAUUUUUAUAAGAUACAUGUAUUUACAAUUGAGCUUUUGUUACUAUAAUACUGAAUGCUACUGGAGAUUAUGAAAAAUGUUUCAAUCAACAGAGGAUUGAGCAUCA | 0.271
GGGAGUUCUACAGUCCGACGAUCGUGACUGGUGUUAAGAUUUACCCUCAGCAAAGAAGUGCAGUAGUCACCAUAAUUCCAUCUGUGGUGAGUGCCAGUCAGAUUGUGGAGCUGGUCCCAGACCUCAGUUUAGACAUGGGAACUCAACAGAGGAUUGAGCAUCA | 0.243
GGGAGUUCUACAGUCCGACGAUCGCUCCUCCCCGCUCUGCAGCCUGGGGACACUGGGCUGGGACCAGAAUCCAGCUUUCUUUUAAAACUCUCAGUGUAACUGUAUCCCGUGACAUUUCAUUUUUUUUUUAAGAAAAAAACUUUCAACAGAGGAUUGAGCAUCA | 0.128
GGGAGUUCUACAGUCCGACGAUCUUUCUACUGCAGCAAACGAUGCUAAGAAUUAAGGAUCCUAAGAAGUCCCUGGAUUUUUAUACUAGAGUUCUUGGACUGACCCUCCUGCAGAAGCUUGACUUCCCUGCUAUGAAGUUUUCGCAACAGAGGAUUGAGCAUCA | 0.616
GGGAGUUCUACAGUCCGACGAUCCGGAGCCCUCCUCUCCCACAGGCCCAAGAUAUAACCCACCAGUGCCUUUUGUCUUCCCGUUAGCUUUGUCAAUCACGCCUGUCCUCUGUCCCUCUCACCAAGUGCCCAAAGUGGGGAGGGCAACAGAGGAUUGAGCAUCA | 11.1

Excerpt of the above (set 2):
Strand | E-score
AACGGCCT | 0.319
TAGCGAAA | 0.251
ACATTATA | 0.336
TAGTTATA | 0.262
AAACATTT | 0.274
ATAATGAT | 0.308
AGGGGAGG | 0.316
ATGTACAT | 0.261
AACGTTAT | 0.269
AATATACC | 0.281
ATAACATC | 0.274
